Measurements gathered from unrelated publications.
A part holds a random share of what one study measured.

Set 1
Target: Histone acetyltransferase KAT6A, winged helix 2, GST fusion (KAT6A, Homo sapiens, UniProt Q92794, residues 85-181)
Technique: protein binding microarray
Molecule type: double-stranded DNA, one strand shown
Sample: in vitro
Concentration: not given
Notes: 8-mer, flanks averaged, mean of 2 arrays, mostly near background
Reference: not given
Direction: higher = stronger binding
Quantity: E-score
Target sequence (chain): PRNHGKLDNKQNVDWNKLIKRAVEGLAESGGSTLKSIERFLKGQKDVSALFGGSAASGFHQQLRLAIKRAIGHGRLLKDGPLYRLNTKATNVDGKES
ATTCTTGC: 0.134
GTACGGAC: 0.00762
ACATTACG: -0.139
GATCACTA: 0.00532
CATCATCG: -0.0912
GAACTAAC: 0.0459
CAGGCGGA: 0.263
CTCTCCCA: -0.0658
CGACTTGC: -0.114
TAAGGTCA: -0.146

Set 2
Target: RNA binding protein fox-1 homolog 2, RRM domain, GST-SBP tag (RBFOX2, Homo sapiens, UniProt O43251-10, residues 100-194)
Technique: RNA Bind-n-Seq
Molecule type: RNA
Sample: in vitro
Concentration: 365 nM
Notes: natural RNA segment, single round, ends assumed
Reference: no-protein control
Direction: higher = stronger binding
Quantity: RBNS enrichment (R)
Shared flanks, not repeated: GGGAGUUCUACAGUCCGACGAUC … UGGAAUUCUCGGGUGCCAA
Target sequence (chain): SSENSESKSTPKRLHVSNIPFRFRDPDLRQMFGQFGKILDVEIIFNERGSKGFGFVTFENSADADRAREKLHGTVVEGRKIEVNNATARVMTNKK
GUGAUGUAUGUAUAUGAGAAAAUUAAUUGUACGAUAUCAUUCCAGUACGUUUUGUUGUACAUUUUAGUCUUGUUUACUUUCUCUUCAUUGUUAAGAGGAUGCGAACUGUA: 1.01
CCCCUGUCCCUGUGAGUCUGGAGUCCGAAGGGCUUGUACCUUGUCACCUUACCUUGUCAUGCCACCCCAGGAGUAGAAGCUGGGUAAGGCCCCAUCAUCCUGACCAUCUC: 0.508
CCCCUGACUUGUUCUGGCAAGGAACAGAAGUAAGGGUGUGAUCCAGCCCGUCCCCCUGGGACCCAUCCCUUCUCUAUAGGAAAAGCUCAGCGCAGGUAUUACAGGUAUGG: 0.217
ACUCUUCAGAAACAGACUUCCUCCUCUUUUCCUUUCUCCUCUGCUCCACAGCCUGUGCUCUGUUCAGUUCCCAACACAAUCGACAAUAAACGGUGAUGCCCAUUCGGAAG: 0.847
GUGGGGGUGUCCGUCAGUUAUUAGUGGAUGGAGAUUCCCACAGCAAGGCUGCAUUUGAAUGAUUUCCUUAGGAUGAAUGGUCCCUACACAAAGAGGCCUUGUGGGCAAAC: 1.54

Set 3
Target: Sal-like protein 4, full length isoform B (SALL4, Homo sapiens, UniProt Q9UJQ4-2, residues 1-616)
Technique: universal PBM
Molecule type: double-stranded DNA, one strand shown
Sample: in vitro
Concentration: not given
Notes: 8-mer, flanks averaged, mean of replicates
Direction: higher = stronger binding
Quantity: E-score
Target sequence (chain): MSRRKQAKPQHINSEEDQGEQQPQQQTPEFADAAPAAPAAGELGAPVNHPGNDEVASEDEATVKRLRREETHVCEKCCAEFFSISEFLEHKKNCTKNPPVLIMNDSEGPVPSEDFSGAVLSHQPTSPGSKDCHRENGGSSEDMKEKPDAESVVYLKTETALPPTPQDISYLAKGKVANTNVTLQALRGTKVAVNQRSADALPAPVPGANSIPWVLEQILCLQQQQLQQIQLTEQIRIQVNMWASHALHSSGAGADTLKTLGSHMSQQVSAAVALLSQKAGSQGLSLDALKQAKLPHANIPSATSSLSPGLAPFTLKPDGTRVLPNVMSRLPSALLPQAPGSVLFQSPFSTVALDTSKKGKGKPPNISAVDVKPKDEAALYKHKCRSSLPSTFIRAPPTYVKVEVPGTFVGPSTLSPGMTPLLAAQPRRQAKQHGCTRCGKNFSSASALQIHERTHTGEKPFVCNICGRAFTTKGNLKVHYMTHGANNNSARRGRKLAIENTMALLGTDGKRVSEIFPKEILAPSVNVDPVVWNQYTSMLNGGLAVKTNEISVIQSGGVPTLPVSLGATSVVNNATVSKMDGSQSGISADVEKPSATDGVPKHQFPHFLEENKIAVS
GTGAATAA: 0.227
CGCCGACG: -0.28
GAGAACCA: -0.15
ATCCTGAG: 0.0542
ACTATCCG: 0.05
ATCAAAGA: 0.113
ACTACTCG: 0.0497
ATCCACCG: -0.202
AGGCGTCA: -0.179
CGTGCTAG: -0.116

Other studies, line by line
PhoQ, residues 284 288 289 292 302 303 SASVAL
fold induction (PhoP, residues 12 14 15 18 19 MHTVL (Escherichia coli, UniProt P23836); Sort-seq, item: YFP reporter; E. coli; PhoQ-PhoP variant library, with: 10 µM Mg2+; reference: high Mg2+ state, higher = stronger signaling): 11.7

Excerpt of the above (set 1):
GAACTAAC: 0.0459
CGACTTGC: -0.114
